Measurements from different studies.
Numbered parts are unrelated; each lists some results of a single study. Changes are numbered by the printed parent chain.

Set 1
Target: POU domain, class 5, transcription factor 1, POU domain (Pou5f1, Mus musculus, UniProt P20263, residues 131-289)
UniProt P20263, sequence (131-289, looked up): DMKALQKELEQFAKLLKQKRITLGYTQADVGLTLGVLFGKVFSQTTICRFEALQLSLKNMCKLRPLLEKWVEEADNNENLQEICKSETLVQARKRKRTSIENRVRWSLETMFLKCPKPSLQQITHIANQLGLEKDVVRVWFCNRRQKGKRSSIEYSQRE
Method: Spec-seq
Form: double-stranded DNA, one strand shown
Matrix: in vitro
Concentration: not given
Setting: whole probe, mean of replicates
Baseline: not given
Direction: lower = stronger binding
Shared flanks, not repeated: GAGTCGTCTCGTCAGCAC … CCGTAGAGCACTCAGGTC
For `ATGACCAT`, “relative binding energy” read 0.461 ln ratio.
For `ATGCGACC`, “relative binding energy” read 0.507 ln ratio.
`ATTCTCAT`: “relative binding energy” 0.353 ln ratio.
For `TCATTAAT`, “relative binding energy” read -0.209 ln ratio.
Under “relative binding energy”, `TAAATAAT` is recorded as -0.656 ln ratio.

Set 2
Target: Interferon regulatory factor 5, full length, phosphomimetic (IRF5, Homo sapiens, UniProt Q13568-2, residues 1-514, K96S/S451D/S453D/S456D/S462D)
Method: protein-binding microarray
Form: double-stranded DNA, one strand shown
Matrix: in vitro
Concentration: 250 nM
Setting: 60-bp whole probe
With: salmon DNA 0.4 mg/ml
Baseline: random background probes
Direction: higher = stronger binding
Shared flanks, not repeated: GCCTAGCAC … GTCTTGATTCGCTTGACGCTGCTG
For `TCATGACTGGAGTCTGGAACTGTGCTA`, the log fluorescence was -0.299 z-score.
The log fluorescence of `TCCCATTAAATTTTAATAACGTGCTAG` is reported as 0.27 z-score.
With `TTAGGCTCCCTTTTCCTTTAGTGCTAG` the log fluorescence was -0.22 z-score.
`GACCGTCTCCTTCTCCTGACGTGCTAG` gave a log fluorescence of -0.132 z-score.
The log fluorescence of `TTAGATTTCAGAGTGGATTAGTGCTAG` is reported as 0.371 z-score.
`GACGGTATCCTACTGGTGACGTGCTAG` gave a log fluorescence of -0.182 z-score.
`TTAGGTCTCCTTATCCTTTGGTGCTAG` gave a log fluorescence of -0.115 z-score.
`GAGGGTTTCGACACTGGGGACGTGCTA` has a log fluorescence of 3.02 z-score.

Set 3
Target: CCNB2, cyclin fold, Cln2 fusion (human)
Method: yeast growth competition, sequencing
Matrix: yeast
Setting: weak parent motif
Baseline: not given
Direction: higher = stronger binding
Starting sequence: PKN2 docking peptide (human); VSAVQKLDFSDTM
Under “normalised enrichment score”, `WSAVQKLDFSDTM [V1W]` is recorded as -0.105.
`VSAVQKLDFEDTM [S10E]`: “normalised enrichment score” 0.708.
`VSAVQSLDFSDTM [K6S]`: “normalised enrichment score” 0.137.
`VSQVQKLDFSDTM [A3Q]`: “normalised enrichment score” -0.341.
`VSAVQKLDFSDRM [T12R]` — result for “normalised enrichment score”: -0.283.

Single results of other studies
`PhoQ, residues 284 288 289 292 302 303 DDMDFR` gave a fold induction of 0.573 (PhoP, residues 12 14 15 18 19 NYFTV (Escherichia coli, UniProt P23836); Sort-seq, refers to: YFP reporter; E. coli; PhoQ-PhoP variant library, with: 10 µM Mg2+; baseline: high Mg2+ state, higher = stronger signaling).

Excerpt of the above (set 1):
For `ATGACCAT`, “relative binding energy” read 0.461 ln ratio.
For `TCATTAAT`, “relative binding energy” read -0.209 ln ratio.
Under “relative binding energy”, `TAAATAAT` is recorded as -0.656 ln ratio.
